Results of several laboratories.
Numbered parts are unrelated; each lists some results of a single study. Substitutions count along the parent as printed.

Set 1
Target: RNA binding protein fox-1 homolog 2, RRM domain, GST-SBP tag (RBFOX2, Homo sapiens, UniProt O43251-10, residues 100-194)
Method: RNA Bind-n-Seq
Molecule type: RNA
Sample: in vitro
Tested at: 365 nM
Notes: natural RNA segment, single round, ends assumed
Baseline: no-protein control
Reading: higher = stronger binding
Endpoint: RBNS enrichment (R)
Shared flanks, not repeated: GGGAGUUCUACAGUCCGACGAUC … UGGAAUUCUCGGGUGCCAA
Target sequence (chain): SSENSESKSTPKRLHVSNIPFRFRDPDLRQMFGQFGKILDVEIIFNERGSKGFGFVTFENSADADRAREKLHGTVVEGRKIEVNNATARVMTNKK
AUCUAGCAGGGUGCCGGGAGGAGCUGAGCCCCCGGAGGUGGGCUCCUGGUGACGGGUGUCCAAGAAGCGGUUUCCUUGGGAGCUUCUGCCUCCGUGGGCCUCUCAGCCCG: 0.403
CACACAUAGGUGCGUGUGUGUCUUUUGUAUUUUUUCUCCUCCAAGGAGCUGUGUCAGUGUGGACGUUCUGUUUCAGGGAGUUGGAAAGGAGGGUGUCUGCAGAAGGUGGA: 0.799
AUCUCCUGUAAAGAGAACAGAGGAGUCUUUAAUGGUUUCUGGAAGGAGAAGGGAUAGGACUUUGUGGUACAGCUCUAGUUUCUGUGAGAAUCCCUUUUAUUUGCAGUUUA: 0.545
UUGAGGGCCUUGACAGAUCGGGCCAGCGCUGACCUCUGUGCUCUGCUUCCUUUCUUUAUCCCUGUUUGUAAACACGGCGCCUCCCUUAAUGUGGCACCAUGCAGAUGUGA: 0.792
CCGUGUAACCACCUGGACUAAGUUGAGAAGGAAACUGCCAAAUGCUUUGGGUUUUUAGGGUUUUAAUAGGUAGACUCUGUUCUAUUAUUAGGUGUUAAGAGUUUCCAAAC: 0.645
CCAGCACGGUCCCUCUUGGAAUUGGAUUCGCCAUUUUAUUUUUCUUGCUGCUAAAUCACCGAGCCCGGAAGAUUAGAGAGUUUUAUUUCUGGGAUUCCUGUAGACACACC: 0.563
UAAGAAUAGCUAGGUUGUAUUAAAACAUGUAAGCUACUUUAAGUGAUAAAUCAAUAGCUAAAGUUUUCUCCUAACUUUAAGUCUGGUAAAUAUCUCUCAGGAAUGGAAGU: 0.566
GUUCUGUAAACAGAUGCAGCCUCCUGGAGAAUGAGGCCCCAGGUUCAAACCAGAAGACAUUUGUGGAUAAAUCUGAACUCACUUCCUGUGUGUAACUUCUAACUUCACUG: 0.421
GCCAGUGUCUCUGCUUGAGAUGGAAUGGUGUUCCCAGCCUGCCUUGUCACUCCUCACCUGAGAGGAAGCAGUGGGUGGUCUGACUCUGCAGCCCAGAGACACAGGAGGCU: 0.332
AUUGCAUGGCCGAGCAUAACUGCCCGCCCCACUCCGACCUAGGAAGAAUUCAACUGGCUGAACCUUCAUACCCUGACUGAGAACUAGUGUCCAAUAAAAGGUGACUGGUU: 0.499
UCUAAGCUCCCUAGCUCAGGCCAAGAAAGAAAGCUGAGCUACUUUUAACUUUCUCUUCCUUAAAUACAAGUCAAUGAAGUGAAGGAGGGUAUGCAUACAUGCCCCUCACC: 0.44
UUAAUACAUUAAGUGGGGUAGACUGAGGGAUUUUAGCCUCUUCCCUCUGAUUUUUCCUUUCGCGAAUCCGUAUCUGCAGAAUGGGCCACUGUAGGGGUUGGGGUUUAUUU: 0.262

Set 2
Target: Prothrombin, mature alpha-thrombin (F2, Homo sapiens, UniProt P00734)
Method: aptamer microarray, sandwich
Molecule type: DNA with 2'F-ANA
Sample: in vitro
Tested at: 200 nM
Notes: whole 15-mer aptamer, many near background
Together with: Cy3 exosite-II aptamer, 400 nM
Reading: higher = stronger binding
Endpoint: mean fluorescence intensity
Oligonucleotide: GGTTGGTGTGGTTGG
2'F-ANA at 2 3 4 6 10 14: 192 a.u.
2'F-ANA at 1 2 4 5 8 10 13 15: 85.6 a.u.
2'F-ANA at 2 6 7 8 10 14 15: 86.1 a.u.
2'F-ANA at 1 3 7 9 14 15: 84.3 a.u.
2'F-ANA at 4 5 6 8 9 11 13 14 15: 51.3 a.u.
2'F-ANA at 2 3 4 6 8 11 12 14: 302 a.u.
2'F-ANA at 1 2 3 4 5 6 7 9 10 11 14 15: 56.7 a.u.
2'F-ANA at 1 2 3 4 6 8 10 11 12 13 14 15: 69.5 a.u.
2'F-ANA at 3 4 5 14 15: 51.7 a.u.
2'F-ANA at 1 3 4 5 7 8 9 10: 47.2 a.u.
2'F-ANA at 1 2 3 9 10 11 15: 69 a.u.
2'F-ANA at 2 3 5 7 8 9 10 12 13 15: 59.7 a.u.
2'F-ANA at 7 8 10 15: 199 a.u.
2'F-ANA at 1 2 3 4 5 7 9 11 14 15: 73.9 a.u.
2'F-ANA at 1 2 4 5 7 8 9 10 13 15: 56.2 a.u.
2'F-ANA at 1 3 5 6 7 9 12 13 14 15: 45.4 a.u.
2'F-ANA at 1 2 3 4 5 6 8 10 11 12: 67 a.u.
2'F-ANA at 2 3 9 11 12 13: 870 a.u.
2'F-ANA at 1 3 4 5 7 9 11 15: 58.8 a.u.
2'F-ANA at 5 8 9 10 11 12 13: 46.1 a.u.
2'F-ANA at 1 3 4 9 11 14 15: 60.5 a.u.
2'F-ANA at 1 2 6 7 9 10 12 13: 95 a.u.
2'F-ANA at 4 5 6 7 8 9 12 14: 50.1 a.u.
2'F-ANA at 1 3 4 6 7 9 10 13 15: 53.2 a.u.

Set 3
Target: CCNE1, cyclin fold, Cln2 fusion (human)
Method: yeast growth competition, sequencing
Sample: yeast
Notes: weak parent motif
Baseline: not given
Reading: higher = stronger binding
Endpoint: normalised enrichment score
Starting sequence: MICAL3 docking peptide (human); LQLRRQLSFSEDS
S10K: 0.22
R5W: 0.384
S8R: 0.22
L7D: -0.201
Q6G: 0.188
L7H: 0.398
S10E: 1.16
E11T: 0.708
S8A: 0.135
S10Q: 0.565
D12E: 1.19
F9R: 0.351
S8W: 0.633
R4T: -0.0455
Q2N: 1.33
L7Y: -0.0469
L7N: -0.13
L7T: -0.0917

Set 4
Target: TAR DNA-binding protein 43, full length, His tag (TARDBP, Homo sapiens, UniProt Q13148, residues 1-414)
Method: RNA Bind-n-Seq
Molecule type: RNA
Sample: in vitro
Tested at: 20 nM
Notes: 6-mer, flanks averaged, single round
Together with: 150 mM LiCl
Baseline: input library
Reading: higher = stronger binding
Endpoint: 6-mer enrichment (R)
CUAUGA: 0.857
GGGGCG: 1.37
AUACAG: 0.829
UAACAG: 0.854
CCCCUA: 1.18
ACACCU: 0.951
UUUUAC: 1.13
AAUCGC: 0.815
CAUAGA: 0.831
UGUCCG: 0.962
AUGCGG: 1.04
GUACUU: 0.895
AUUGUC: 0.925
UAGCCA: 0.889
GCUCUC: 0.891
ACUACC: 0.862
UUUAAG: 1
GGUUAU: 1.07

Set 5
Target: ABI1, truncated, D143A, DHFR fusion (Arabidopsis thaliana)
Method: DHFR PCA, deep sequencing
Sample: yeast
Notes: methotrexate growth selection, single substitutions
Together with: (+)-ABA 200 µM
Baseline: wild-type fitted maximum
Reading: higher = stronger binding
Endpoint: relative binding score
Starting sequence: PYL1, truncated, DHFR fusion (Arabidopsis thaliana); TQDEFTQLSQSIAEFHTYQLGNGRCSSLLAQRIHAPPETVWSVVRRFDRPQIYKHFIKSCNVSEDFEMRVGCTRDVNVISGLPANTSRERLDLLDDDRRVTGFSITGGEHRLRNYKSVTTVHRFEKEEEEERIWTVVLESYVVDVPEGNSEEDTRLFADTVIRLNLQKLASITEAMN; partner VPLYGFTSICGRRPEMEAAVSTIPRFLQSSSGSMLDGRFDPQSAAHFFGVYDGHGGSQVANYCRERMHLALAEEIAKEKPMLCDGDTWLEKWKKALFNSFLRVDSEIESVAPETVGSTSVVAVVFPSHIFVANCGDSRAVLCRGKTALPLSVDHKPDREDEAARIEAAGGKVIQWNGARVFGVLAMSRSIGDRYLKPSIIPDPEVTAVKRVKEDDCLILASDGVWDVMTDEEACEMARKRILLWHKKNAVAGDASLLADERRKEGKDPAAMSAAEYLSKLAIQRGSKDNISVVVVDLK
S171Q: 104%
I105K: 2.28%
G21K: 98.8%
V118F: 76.7%
Q51Y: 98.3%
E14P: 47.9%
F66G: 102%
A158R: -4.2%
E125G: 104%
T120P: 4.18%
N22C: 95.1%
E139G: 9.26%
T73N: 95.7%
T106L: 104%

Set 6
Target: Myc proto-oncogene protein, bHLH-zipper, MAX partner unstated (MYC, Homo sapiens, UniProt P01106, residues 368-449)
Sequence of UniProt P01106 (368-449, looked up): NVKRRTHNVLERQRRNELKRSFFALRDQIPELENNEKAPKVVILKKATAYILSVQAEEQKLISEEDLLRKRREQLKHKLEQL
Method: protein-binding microarray
Molecule type: double-stranded DNA, one strand shown
Sample: in vitro
Tested at: not given
Notes: k-mer, scored over probes, only values ≥0.25
Reading: higher = stronger binding
Endpoint: E-score
CTCGTGGC: 0.457
CACATGGG: 0.456
ACACCTGG: 0.256
ACACGCCT: 0.346
ACCTCGCA: 0.27
CCATGCTA: 0.36
TGTGCACA: 0.276
GCATGACA: 0.333
AACATCGT: 0.298
CATGGCCG: 0.389
AACCACGC: 0.429
CGTGTGAC: 0.286
GCGCGGTA: 0.294
CCAGCACG: 0.299
ACGCGTTC: 0.305
CACGCTAA: 0.313
CATGGTGG: 0.366
CATGTTAG: 0.256
GTGAACAC: 0.282
AATGTGGT: 0.264
CCCTCGAG: 0.26
CGACACGC: 0.375

Set 7
Target: Sal-like protein 4, full length isoform B (SALL4, Homo sapiens, UniProt Q9UJQ4-2, residues 1-616)
Method: universal PBM
Molecule type: double-stranded DNA, one strand shown
Sample: in vitro
Tested at: not given
Notes: 8-mer, flanks averaged, mean of replicates
Reading: higher = stronger binding
Endpoint: E-score
ATACCGGA: 0.0479
AATGACAG: 0.168
CGTAGAGC: -0.236
AAGGATAC: -0.0351
GTCCGAGA: -0.173
CCGGACGA: -0.167
CAGACTTA: 0.00855
ACGTCAAT: 0.0671
ATAAGGGC: 0.0956
TGCTAGAA: -0.0306
AGTTATTA: 0.426
CGGAGAGA: -0.28
TACCGCCA: 0.0031
AGGAGGGA: -0.151
ATGAGTTG: 0.0405
AAAGAATT: 0.204
GCTGCCTA: -0.153
ATCGAGAT: 0.0662

Set 8
Target: RING finger protein unkempt homolog, zinc fingers 1-6, GST-SBP tag (UNK, Homo sapiens, UniProt Q9C0B0, residues 30-357)
Method: RNA Bind-n-Seq
Molecule type: RNA
Sample: in vitro
Tested at: not given
Notes: RNA with constant flanks, ends assumed
Baseline: input RNA pool
Reading: higher = stronger binding
Endpoint: bound/input enrichment
Shared flanks, not repeated: GGGAGUUCUACAGUCCGACGAUC … CAACAGAGGAUUGAGCAUCA
Residues (chain): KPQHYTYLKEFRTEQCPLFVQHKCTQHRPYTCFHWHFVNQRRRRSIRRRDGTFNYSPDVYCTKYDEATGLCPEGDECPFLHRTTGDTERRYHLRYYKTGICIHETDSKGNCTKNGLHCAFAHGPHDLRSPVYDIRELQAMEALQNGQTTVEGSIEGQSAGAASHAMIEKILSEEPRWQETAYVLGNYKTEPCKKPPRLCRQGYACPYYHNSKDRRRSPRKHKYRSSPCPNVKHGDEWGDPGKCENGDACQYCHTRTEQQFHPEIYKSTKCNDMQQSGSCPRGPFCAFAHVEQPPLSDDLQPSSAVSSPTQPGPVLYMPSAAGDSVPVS
GAGAGGAUUAGGUUCCAUCCUUUACGUGUUUAAAAAAAAGCAUAAAAACAUUUUAAAAACACCGAAAAAUUCAGCAAACCAUUUUUAAAGUAGAAGAGGGUUUUAGGUAGAAAAACAUAU: 13.4 ratio
ACUGAAAUACUAGUAAAUUACUUGAGUUUUUCACGAUGACUUCAGAGGAGGGGUCAUCACCCGGUGCUUUGUCCUUUUUGUACUAUGAUUCACCCAUCUCUUGGAUUGGAUGUAGCAAUA: 0.491 ratio
CAAUCAAGCUACAGACAGUCGAGUCCAGGCGUGUGCAGCUGUGUGGAGGAUGCCCAAGGAAUCCGAAUCCGGUAGCCACGAGUCCCCUGACGACCCUGCAAGCACUGCUCAGACCCUGGA: 0.0652 ratio
CAAGGCGGUUUCAGAGAAGUUCGGAAUGAGUAUGGGUCAAGAAUAGGAGGAAAUGAAGGGACCGAUGUCCCCAUUCCAAGAUUUGCUGUUGGCAUUGUAAUAGGAAGAAAUGGAGAGAUG: 2.76 ratio
AAGGUGAUAACCAUGUUUGUACAGCGACAGGUGUUUGCUGAGAACAAGGAUGAGAUUGCUUCCGUCCUGUUUGGUACAGAUGGCACUGACAAUCCCCUUUCUGGUGGGGAUCAGUAUCAG: 0.0985 ratio

Excerpt of the above (set 4):
GGGGCG: 1.37
CUAUGA: 0.857
GUACUU: 0.895
UGUCCG: 0.962
GGUUAU: 1.07
ACUACC: 0.862
AUACAG: 0.829
UUUUAC: 1.13
CAUAGA: 0.831
GCUCUC: 0.891
UAACAG: 0.854
UAGCCA: 0.889
CCCCUA: 1.18
UUUAAG: 1
